Measured values pooled from the literature.
Lines come from different studies, so protocols differ. ± gives the spread as reported.
Cell line: HEK293

Compound	assay	test system	setting	measurement	result
CCCCCCCOc1ccc(CC[C@](N)(CO)COP(=O)(O)O)cc1C(F)(F)F		supernatant	100 nM	time to phosphate metabolite detection	6 h
COc1ccc(C(=O)/C=C(\O)C(F)(F)C(F)(F)F)c(O)c1	cell viability		24 h, 10% FBS	EC50	~10000 nM
CC(C)Cc1ccc(C(C)C(=O)N/N=C/c2ccc(OCC(=O)N/N=C/c3ccc([N+](=O)[O-])cc3)cc2)cc1 (centres unmarked)	MTT		150 µM, 48 h	viability	38.3%
COC(=O)[C@H](Cc1ccccc1)NC(=O)[C@H](Cc1ccccc1)NC(=O)CCC(=O)N[C@@H](Cc1ccccc1)C(=O)N[C@@H](Cc1ccccc1)C(=O)OC	MTT		24 h, 37 °C, self-assembled structures	highest non-toxic concentration	≤ 75 µM
C[C@@H](Nc1c(-c2c(F)cc(C#CCCN)cc2F)c(Cl)nc2ncnn12)C(C)(C)C	cell growth or viability, ATP luminescence		48 h	CC50	266 nM
COc1cccc(/C=N/NC(=O)COc2ccc(/C=N/NC(=O)C(C)c3ccc(CC(C)C)cc3)cc2)c1O (centres unmarked)	MTT		100 µM, 48 h	viability	43.6%
CC(=O)NCCCOc1cc(F)c(-c2c(Cl)nc3ncnn3c2N[C@@H](C)C(F)(F)F)c(F)c1	cell growth or viability, ATP luminescence		48 h	CC50	32.3 nM
Cc1[nH][n+]([Pd-2]([Br])([Br])[n+]2[nH]c(C)c(CSC3CCCCC3)c2C)c(C)c1CSC1CCCCC1	cytotoxicity, 7-AAD flow cytometry		24 h	IC50	850 ± 70 nM
CC(C)[C@H](C)Nc1c(-c2c(F)cc(OCCCN(C)C)cc2F)c(Cl)nc2ncnn12	cell growth or viability, ATP luminescence		48 h	CC50	70 nM
COC(=O)[C@H](CSSC[C@H](NC(=O)[C@H](Cc1ccccc1)NC(=O)[C@H](Cc1ccccc1)NC(=O)OC(C)(C)C)C(=O)OC)NC(=O)[C@H](Cc1ccccc1)NC(=O)[C@H](Cc1ccccc1)NC(=O)OC(C)(C)C	MTT		36 h	cytotoxic concentration	100 µM
CC(C)Cc1ccc(C(C)C(=O)N/N=C/c2ccc(OCC(=O)N/N=C/c3c(O)ccc4ccccc34)cc2)cc1 (centres unmarked)	MTT		40 µM, 48 h	viability	35.6%
C[C@@H](Nc1c(-c2c(F)cc(C#N)cc2F)c(Cl)nc2ncnn12)C(C)(C)C	cell growth or viability, ATP luminescence		48 h	CC50	29.1 nM
CC(C)Cc1ccc(C(C)C(=O)NN=Cc2ccc(OCC(=O)NN=Cc3cccc([N+](=O)[O-])c3)cc2)cc1 (centres unmarked)	MTT		80 µM, 48 h	viability	96%
NCC1OC(OC2C(N)CC(N)C(OC3OC(CO)C(O)C(N)C3O)C2OCCCCCCCCn2cc(CNc3nc(NCc4cn(CCCCCCCCOC5C(OC6OC(CN)C(O)CC6N)C(N)CC(N)C5OC5OC(CO)C(O)C(N)C5O)nn4)nc(NCc4cn(CCCCCCCCOC5C(OC6OC(CN)C(O)CC6N)C(N)CC(N)C5OC5OC(CO)C(O)C(N)C5O)nn4)n3)nn2)C(N)CC1O (centres unmarked)	cell growth or viability, resazurin		48 h	CC50	116000 nM

A few entries again:
Compound	assay	test system	setting	measurement	result
CC(=O)NCCCOc1cc(F)c(-c2c(Cl)nc3ncnn3c2N[C@@H](C)C(F)(F)F)c(F)c1	cell growth or viability, ATP luminescence		48 h	CC50	32.3 nM
Cc1[nH][n+]([Pd-2]([Br])([Br])[n+]2[nH]c(C)c(CSC3CCCCC3)c2C)c(C)c1CSC1CCCCC1	cytotoxicity, 7-AAD flow cytometry		24 h	IC50	850 ± 70 nM
